Assay results pooled from the literature.
Lines come from different studies, so protocols differ. “And” joins repeats or separate records; there may be more than shown. Numbers after ± are the reported error.
CDK5 with p25: Cyclin-dependent kinase 5, with p25 (CDK5, Homo sapiens, UniProt Q00535)
Chain of UniProt Q00535 (whole entry, looked up): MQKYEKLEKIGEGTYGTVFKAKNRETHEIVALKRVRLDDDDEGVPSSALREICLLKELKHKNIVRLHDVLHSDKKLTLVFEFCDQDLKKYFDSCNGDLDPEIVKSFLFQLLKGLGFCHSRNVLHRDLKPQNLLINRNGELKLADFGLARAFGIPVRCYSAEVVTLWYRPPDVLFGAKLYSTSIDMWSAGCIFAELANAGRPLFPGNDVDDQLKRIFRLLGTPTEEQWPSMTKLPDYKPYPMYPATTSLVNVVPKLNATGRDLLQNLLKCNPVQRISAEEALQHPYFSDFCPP
HIPK3: Homeodomain-interacting protein kinase 3 (HIPK3, Homo sapiens, UniProt Q9H422)
Chain of UniProt Q9H422 (whole entry, looked up): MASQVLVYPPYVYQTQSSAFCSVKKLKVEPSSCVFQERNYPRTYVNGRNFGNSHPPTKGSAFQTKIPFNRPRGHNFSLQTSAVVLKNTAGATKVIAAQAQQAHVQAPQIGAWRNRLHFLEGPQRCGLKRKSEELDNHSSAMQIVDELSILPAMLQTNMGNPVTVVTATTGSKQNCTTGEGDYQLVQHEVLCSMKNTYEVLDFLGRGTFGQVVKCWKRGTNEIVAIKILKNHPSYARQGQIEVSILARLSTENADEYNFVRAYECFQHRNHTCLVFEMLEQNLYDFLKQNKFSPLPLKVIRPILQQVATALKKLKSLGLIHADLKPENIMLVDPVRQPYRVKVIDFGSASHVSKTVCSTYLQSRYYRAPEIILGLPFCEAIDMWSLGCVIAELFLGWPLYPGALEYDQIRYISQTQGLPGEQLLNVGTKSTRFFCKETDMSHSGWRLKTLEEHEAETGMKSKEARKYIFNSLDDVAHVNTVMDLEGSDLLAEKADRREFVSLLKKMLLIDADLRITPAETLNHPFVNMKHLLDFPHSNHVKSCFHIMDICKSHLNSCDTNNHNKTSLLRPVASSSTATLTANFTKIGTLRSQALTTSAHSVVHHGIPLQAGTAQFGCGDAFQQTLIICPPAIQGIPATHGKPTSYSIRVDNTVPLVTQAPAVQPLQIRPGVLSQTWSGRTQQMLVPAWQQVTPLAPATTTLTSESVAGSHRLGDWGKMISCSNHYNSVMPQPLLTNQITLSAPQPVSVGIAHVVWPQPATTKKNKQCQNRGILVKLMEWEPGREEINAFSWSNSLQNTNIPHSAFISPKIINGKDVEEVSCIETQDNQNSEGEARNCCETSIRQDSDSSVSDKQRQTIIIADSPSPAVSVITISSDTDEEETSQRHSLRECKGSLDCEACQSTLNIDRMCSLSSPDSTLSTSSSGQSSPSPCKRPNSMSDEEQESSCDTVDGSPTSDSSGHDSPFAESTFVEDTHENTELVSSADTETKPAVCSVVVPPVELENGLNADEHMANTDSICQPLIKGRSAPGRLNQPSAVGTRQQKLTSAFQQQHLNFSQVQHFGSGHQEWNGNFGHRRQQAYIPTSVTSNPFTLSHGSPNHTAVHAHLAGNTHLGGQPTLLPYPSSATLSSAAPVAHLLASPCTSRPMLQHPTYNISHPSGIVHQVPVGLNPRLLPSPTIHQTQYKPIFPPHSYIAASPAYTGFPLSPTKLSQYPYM
NTRK2: BDNF/NT-3 growth factors receptor (NTRK2, Homo sapiens, UniProt Q16620)
Chain of UniProt Q16620 (whole entry, looked up): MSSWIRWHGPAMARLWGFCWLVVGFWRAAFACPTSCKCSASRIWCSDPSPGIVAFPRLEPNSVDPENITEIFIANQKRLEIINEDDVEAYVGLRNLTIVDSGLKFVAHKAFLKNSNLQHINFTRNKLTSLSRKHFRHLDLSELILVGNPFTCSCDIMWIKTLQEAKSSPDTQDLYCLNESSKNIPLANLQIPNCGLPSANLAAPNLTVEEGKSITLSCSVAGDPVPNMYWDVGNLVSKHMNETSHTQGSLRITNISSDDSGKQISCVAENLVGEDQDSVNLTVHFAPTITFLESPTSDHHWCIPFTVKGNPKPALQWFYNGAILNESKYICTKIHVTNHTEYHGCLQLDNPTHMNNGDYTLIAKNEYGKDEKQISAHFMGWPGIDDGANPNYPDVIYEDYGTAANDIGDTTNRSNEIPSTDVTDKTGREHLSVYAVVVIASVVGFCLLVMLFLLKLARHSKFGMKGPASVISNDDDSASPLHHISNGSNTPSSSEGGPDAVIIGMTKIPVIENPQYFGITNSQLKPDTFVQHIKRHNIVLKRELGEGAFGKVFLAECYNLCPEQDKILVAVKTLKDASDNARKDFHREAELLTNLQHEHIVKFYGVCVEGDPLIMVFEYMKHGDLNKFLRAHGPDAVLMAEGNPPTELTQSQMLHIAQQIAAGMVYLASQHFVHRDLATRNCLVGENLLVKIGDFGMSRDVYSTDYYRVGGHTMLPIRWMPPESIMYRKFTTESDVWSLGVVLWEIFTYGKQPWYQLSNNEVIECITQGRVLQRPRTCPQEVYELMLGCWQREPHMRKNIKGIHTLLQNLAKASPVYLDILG
MAP3K3: Mitogen-activated protein kinase kinase kinase 3 (MAP3K3, Homo sapiens, UniProt Q99759)
Chain of UniProt P51575 (whole entry, unmodified, looked up): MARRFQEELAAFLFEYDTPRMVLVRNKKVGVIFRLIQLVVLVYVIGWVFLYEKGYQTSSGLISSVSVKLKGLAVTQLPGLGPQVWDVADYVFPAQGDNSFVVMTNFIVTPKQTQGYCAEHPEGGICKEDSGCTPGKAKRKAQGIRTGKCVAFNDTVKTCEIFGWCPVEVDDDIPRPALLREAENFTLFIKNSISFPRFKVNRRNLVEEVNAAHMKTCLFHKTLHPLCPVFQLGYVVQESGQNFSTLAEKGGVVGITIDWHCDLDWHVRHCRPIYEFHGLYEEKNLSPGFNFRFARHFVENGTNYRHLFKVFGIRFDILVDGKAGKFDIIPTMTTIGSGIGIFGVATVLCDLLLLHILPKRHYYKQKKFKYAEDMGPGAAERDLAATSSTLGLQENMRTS
Chain of UniProt Q99759 (whole entry, looked up): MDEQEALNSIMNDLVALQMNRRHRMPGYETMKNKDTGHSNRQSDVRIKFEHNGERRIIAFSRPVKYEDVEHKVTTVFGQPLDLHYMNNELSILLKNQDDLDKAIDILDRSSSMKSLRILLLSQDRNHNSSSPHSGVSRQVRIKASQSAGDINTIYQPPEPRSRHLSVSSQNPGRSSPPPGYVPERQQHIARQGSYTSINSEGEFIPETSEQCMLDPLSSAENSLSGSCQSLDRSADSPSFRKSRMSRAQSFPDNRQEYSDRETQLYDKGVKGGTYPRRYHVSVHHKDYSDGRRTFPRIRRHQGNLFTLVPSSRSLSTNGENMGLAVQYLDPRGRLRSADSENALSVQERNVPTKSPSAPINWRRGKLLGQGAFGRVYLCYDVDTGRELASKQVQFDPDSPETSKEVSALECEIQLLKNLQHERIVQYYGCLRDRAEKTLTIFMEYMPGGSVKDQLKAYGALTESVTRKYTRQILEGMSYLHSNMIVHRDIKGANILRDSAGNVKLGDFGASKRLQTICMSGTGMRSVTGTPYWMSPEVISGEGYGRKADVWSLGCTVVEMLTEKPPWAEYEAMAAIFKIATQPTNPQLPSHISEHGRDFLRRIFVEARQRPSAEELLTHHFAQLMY
Chain of UniProt Q92626 (whole entry, looked up): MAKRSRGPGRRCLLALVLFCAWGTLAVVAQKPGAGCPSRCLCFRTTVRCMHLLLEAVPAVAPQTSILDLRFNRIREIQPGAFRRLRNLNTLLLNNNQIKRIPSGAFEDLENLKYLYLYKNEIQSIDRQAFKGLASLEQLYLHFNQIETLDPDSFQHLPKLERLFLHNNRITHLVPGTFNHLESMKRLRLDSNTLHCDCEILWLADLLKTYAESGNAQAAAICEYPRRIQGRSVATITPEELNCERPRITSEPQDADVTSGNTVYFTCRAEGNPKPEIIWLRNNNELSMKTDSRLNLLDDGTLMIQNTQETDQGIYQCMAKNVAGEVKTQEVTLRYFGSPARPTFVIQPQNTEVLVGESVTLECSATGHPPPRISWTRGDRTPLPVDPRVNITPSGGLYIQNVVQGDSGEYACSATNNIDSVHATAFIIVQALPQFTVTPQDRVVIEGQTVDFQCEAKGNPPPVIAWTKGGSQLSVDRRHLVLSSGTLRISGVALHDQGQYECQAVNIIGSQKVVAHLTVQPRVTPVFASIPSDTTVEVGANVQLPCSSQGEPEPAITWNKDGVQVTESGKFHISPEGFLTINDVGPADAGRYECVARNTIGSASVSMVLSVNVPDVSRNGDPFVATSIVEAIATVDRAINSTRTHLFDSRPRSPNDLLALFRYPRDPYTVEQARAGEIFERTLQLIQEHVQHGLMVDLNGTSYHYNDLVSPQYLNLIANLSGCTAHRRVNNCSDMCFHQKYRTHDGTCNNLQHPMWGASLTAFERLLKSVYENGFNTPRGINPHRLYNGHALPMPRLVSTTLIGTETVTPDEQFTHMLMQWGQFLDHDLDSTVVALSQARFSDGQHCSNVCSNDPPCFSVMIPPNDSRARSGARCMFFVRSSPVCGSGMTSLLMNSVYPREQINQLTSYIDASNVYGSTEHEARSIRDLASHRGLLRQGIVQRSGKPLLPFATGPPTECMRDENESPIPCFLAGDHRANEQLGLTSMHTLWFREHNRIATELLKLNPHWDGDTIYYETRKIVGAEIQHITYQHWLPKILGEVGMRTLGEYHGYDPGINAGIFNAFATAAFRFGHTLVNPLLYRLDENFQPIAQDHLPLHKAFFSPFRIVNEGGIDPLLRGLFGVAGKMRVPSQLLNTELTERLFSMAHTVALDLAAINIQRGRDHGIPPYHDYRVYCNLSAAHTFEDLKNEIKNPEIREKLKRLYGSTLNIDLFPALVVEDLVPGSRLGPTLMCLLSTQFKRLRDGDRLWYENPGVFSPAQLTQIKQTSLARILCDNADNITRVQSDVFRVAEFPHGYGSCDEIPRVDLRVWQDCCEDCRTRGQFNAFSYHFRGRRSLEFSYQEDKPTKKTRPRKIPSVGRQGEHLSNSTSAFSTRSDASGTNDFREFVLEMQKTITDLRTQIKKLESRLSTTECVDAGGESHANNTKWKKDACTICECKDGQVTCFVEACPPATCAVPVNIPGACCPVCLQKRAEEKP

COc1ccc(Cl)cc1-c1cc(=O)[nH]c(=S)n1CC(N)=O gave a remaining activity of 7.74% (Myeloperoxidase (MPO, Homo sapiens, UniProt P05164); 5 µM, 0.1 h).
COc1cc(Nc2ncc3c(n2)-c2ccc(Cl)cc2C(c2c(F)cccc2OC)=NC3)ccc1C(=O)O gave a remaining activity of 88% (CAMK4; kinase activity; 1 µM).
With NC(=O)c1cnc2[nH]ccc2c1N[C@@H]1[C@@H]2CC3C[C@H]1C[C@@](O)(C3)C2 the percent change was 1.25% (CD8+ memory T cells, flow cytometry; Caucasian humans, peripheral blood; 60 mg single dose; relative to: baseline).
With COc1ccc(F)cc1C(=O)NCc1ccc(-c2nn([C@@H](C)C(F)(F)F)c(N)c2C(N)=O)cc1 the remaining activity was 69.4 ± 1.9% (CDK5 with p25; kinase activity, inhibitor, HotSpot radiometric; 100 nM, with: ATP 10 µM).
For N#Cc1ccc2c(c1)[C@H]1CCCN(C(=O)c3ccc4[nH]cnc4c3)[C@H]1C2, the plasma level was 10.7 pmol/L (measured: ACTH; human, Phase II trial; oral, 80 mg once daily, last treatment, HPA axis, mean).
The remaining activity of O=C(NC1CCC1)c1ccc2nc(-c3cccc(NS(=O)(=O)NCCN4CCCCC4)c3)cn2c1 is reported as 79% (Mitogen-activated protein kinase kinase kinase 15 (MAP3K15, Homo sapiens, UniProt Q6ZN16); enzyme activity; 10 µM).
For O=C(O)CNC(=O)Cc1ccccc1, the sarcomere length was 1.62 µm (ventricular cardiomyocytes, C57BL/6 mouse; dose not given, 0.848 s).
With CC(C)[C@H](NC(=O)[C@H](Cc1ccc(O)cc1)NC(=O)[C@H](Cc1ccc(O)cc1)NC(=O)[C@@H]1CCCN1C(=O)[C@H](CCC(=O)O)NC(=O)[C@H](CCC(=O)O)NC(=O)[C@H](Cc1c[nH]c2ccccc12)NC(=O)[C@@H]1CCCN1C(=O)[C@@H](NC(=O)[C@H](CCC(N)=O)NC(=O)c1ccc2c(c1)C(=O)OC21c2ccc(O)cc2Oc2cc(O)ccc21)C(C)C)C(=O)N[C@H](C(=O)N[C@@H](CCCCN)C(=O)N[C@@H](CCCCN)C(=O)N[C@@H](CO)C(=O)N[C@@H](CO)C(=O)NCC(=O)NCC(N)=O)C(C)C the plasma concentration was 4450 ng/mL (measured: total compound; human, plasma; intravenous infusion, 100 mg, 15 min).
With COc1cc(N2CCN(C)CC2)ccc1Nc1nc(N)n(C(=S)NCc2c(Cl)cccc2Cl)n1 the remaining activity was 18% (HIPK3; enzyme activity; 10 µM; relative to: control).
The tissue uptake of CC(C)C[C@H](NC(=O)C[C@H](O)[C@H](CC(C)C)NC(=O)[C@H](Cc1c[nH]cn1)NC(=O)CNC(=O)[C@@H](NC(=O)[C@H](C)NC(=O)[C@H](Cc1c[nH]c2ccccc12)NC(=O)[C@H](CCC(N)=O)NC(=O)[C@@H](Cc1ccccc1)NC(=O)COCCOCCNC(=O)CCC(C(=O)O)N1CCN(CC(=O)O)CCN(CC(=O)O)CCN(CC(=O)O)CC1)C(C)C)C(N)=O (stereo partly shown) [lutetium-177 labelled] is reported as 0.06 ± 0.06 %ID/g (female BALB/c nu/nu mice, bone; intravenous, 100 pmol, 4 h, with: PA 300 µg).
Cc1cc(Nc2cc(N3CCN(C)CC3)nc(Sc3ccc(NC(=O)C4CC4)cc3)n2)[nH]n1 gave a remaining activity of 82% (NTRK2; kinase activity, KinaseProfiler; 0.03 µM, species human; relative to: control).
For COc1cc(F)ccc1-c1ncnc(Nc2cccc(C[S@](C)(=N)=O)c2)n1, the remaining activity was 41% (NTRK2; kinase activity; 10 µM, with: 10 µM ATP).
For Oc1cc(O)c2c(c1)OC(c1cc(O)c(O)c(O)c1)C(O)C2 (stereo not shown), the remaining activity was 95.6% (Procathepsin L (CTSL, Homo sapiens, UniProt P07711); enzyme activity, inhibitor; 100 µM, with: Z-FR-AFC).
CNc1ncc2c(/C=C/C(=O)N3CCC(OC)CC3)nn(Cc3cccc(C(F)(F)F)c3)c2n1 has a remaining activity of 92% (Serine/threonine-protein kinase D2 (PRKD2, Homo sapiens, UniProt Q9BZL6); kinase activity, inhibitor; 1 µM; relative to: untreated control).
CC(C)(C)c1nc(-c2cccc(NS(=O)(=O)c3c(F)cccc3F)c2F)c(-c2ccnc(N)n2)s1 has a remaining activity of 98% (CDK5 with p25; kinase activity, radiometric 33PanQinase; 1 µM; relative to: DMSO).
For Cc1cc(Nc2ccc(S(F)(F)(F)(F)F)cc2)n2nc(C(C)(F)F)nc2n1, “patients with cardiac adverse events” read 0% (Plasmodium vivax; human Plasmodium vivax malaria patients; oral, 400 mg).
The Cmax of COc1ccc2nc([S+]([O-])Cc3ncc(CO)c(OC)c3C)[nH]c2c1 (stereo not shown) is reported as 64.4 ng/mL (Cytochrome P450 2C19 (CYP2C19, Homo sapiens, UniProt P33261); substrate; human, plasma; oral, 20 mg, day 14, cocktail with binimetinib and encorafenib).
The fraction unbound of Cc1cc(O)cc(C)c1C[C@H](NC(=O)[C@@H]1CCCN1C(=O)[C@H](CCCNC(=N)N)NC(=O)[C@H](CCCNC(=N)N)N(C)C(=O)CNC(=O)[C@@H](CO)NC(=O)CNC(=O)[C@H](Cc1cn(CCNC(=O)[C@H](CC(C)C)NC(=O)[C@H](CC(C)C)NC(=O)C2OC2C(=O)NO)nn1)NC(=O)CN1CCN(CC(=O)O)CCN(CC(=O)O)CCN(CC(=O)O)CC1)C(=O)N[C@H](C(=O)N[C@@H](CC(C)C)C(=O)O)C(C)(C)C (stereo partly shown) is reported as 0.84 (human).
With C=CC(=O)N1CCC([C@@H]2CCNc3c(C(N)=O)c(-c4ccc(Oc5ccccc5)cc4)nn32)CC1 the remaining activity was 69.6 ± 1% (MAP3K3; kinase activity, inhibitor, HotSpot radiometric; 100 nM, with: ATP 10 µM).
With Nc1ncnc2c1ncn2[C@@H]1O[C@H](COP(=O)(O)CP(=O)(O)OP(=O)(O)O)[C@@H](O)[C@H]1O the calcium influx was 97.4% and 97.2% and 94.5% (P2X purinoceptor 1 (P2RX1, Homo sapiens, UniProt P51575, L218T); calcium influx; 316 nM; relative to: ionomycin response).
With C=CC[C@@H]1c2ccc(OC)c(OC)c2CN2CCc3cc4c(cc3[C@H]12)OCO4 the remaining activity was 50.5% (P2X purinoceptor 7 (P2RX7, Homo sapiens, UniProt Q99572); ATP-evoked current, inhibitor, whole-cell patch clamp; HEK293 transfected; 0.3 µM).
For NC/C(=C\F)COc1cccc(Cn2c(=S)[nH]c(=O)c3[nH]cnc32)c1, the remaining activity was 9.76% (Peroxidasin homolog (PXDN, Homo sapiens, UniProt Q92626); Amplex UltraRed; 60 µM; relative to: control).
O=C1NC(=O)/C(=C/c2ccc(-c3ccc(F)cc3O)o2)S1 gave a remaining activity of 23% (HIPK3; enzyme activity; 10 µM).
For COc1cc(-c2cncc3c2CN(C)Cc2cc(N4CCNCC4)ccc2-3)cc(OC)c1OC, the remaining activity was 108% (MAP3K3; kinase activity; 1 µM, human enzyme, with: ATP 10 µM; relative to: DMSO control).
C=CC(=O)N1CCC[C@@H](n2nc(-c3ccc(Oc4ccccc4)cc3)c3c(N)ncnc32)C1 gave a remaining activity of 140% (NT-3 growth factor receptor (NTRK3, Homo sapiens, UniProt Q16288); 0.1 µM).
C=CC(=O)N1CCC[C@@H](n2nc(-c3ccc(Oc4ccccc4)cc3)c3c(N)ncnc32)C1 gave a remaining activity of 73.2% (CDK5 with p25; kinase activity, inhibitor, HotSpot radiometric; 100 nM, with: ATP 10 µM).
COc1cc(N2CCN(C)CC2)ccc1Nc1nc(N)n(C(=O)NCc2c(Cl)cccc2Cl)n1 gave a remaining activity of 4.6% (Serine/threonine-protein kinase SBK1 (SBK1, Homo sapiens, UniProt Q52WX2); enzyme activity; 10 µM; relative to: control).
The remaining activity of Cc1cc(NC(=O)c2cccc(NC(=O)/C=C/CN(C)C)c2)ccc1Nc1nccc(-c2cccnc2)n1 is reported as 1.05 (Mitogen-activated protein kinase 8 (MAPK8, Homo sapiens, UniProt P45983); enzyme activity, inhibitor; 8.36e-05 µM, 6 h, unit not given, with: GSH 10 mM pre-incubation; relative to: vehicle).
For CC#CC(=O)N1CCC[C@H]1c1nc(-c2ccc(C(=O)Nc3ccccn3)cc2)c2c(N)nccn12, the remaining activity was 89.5 ± 1.4% (CDK5 with p25; kinase activity, inhibitor, HotSpot radiometric; 100 nM, with: ATP 10 µM).
O=C(O)c1ccc(Nc2ncc3c(n2)-c2ccc(Cl)cc2C(c2c(F)cccc2F)=NC3)cc1 has a remaining activity of 94% (Ron(h); kinase activity; 1 µM).
Cn1cc(-c2ccc(-c3cncc(Cl)c3N3CCC4(CCNC4=O)CC3)cc2)cn1 — result for “log2 fold change”: 2.59 (COLO 205; gene expression, microarray, measured: NDUFA4L2 mRNA; concentration not given, 2 h; relative to: untreated cells).

Repeated from above:
C=CC(=O)N1CCC[C@@H](n2nc(-c3ccc(Oc4ccccc4)cc3)c3c(N)ncnc32)C1 gave a remaining activity of 73.2% (CDK5 with p25; kinase activity, inhibitor, HotSpot radiometric; 100 nM, with: ATP 10 µM).
The fraction unbound of Cc1cc(O)cc(C)c1C[C@H](NC(=O)[C@@H]1CCCN1C(=O)[C@H](CCCNC(=N)N)NC(=O)[C@H](CCCNC(=N)N)N(C)C(=O)CNC(=O)[C@@H](CO)NC(=O)CNC(=O)[C@H](Cc1cn(CCNC(=O)[C@H](CC(C)C)NC(=O)[C@H](CC(C)C)NC(=O)C2OC2C(=O)NO)nn1)NC(=O)CN1CCN(CC(=O)O)CCN(CC(=O)O)CCN(CC(=O)O)CC1)C(=O)N[C@H](C(=O)N[C@@H](CC(C)C)C(=O)O)C(C)(C)C (stereo partly shown) is reported as 0.84 (human).
For NC/C(=C\F)COc1cccc(Cn2c(=S)[nH]c(=O)c3[nH]cnc32)c1, the remaining activity was 9.76% (Peroxidasin homolog (PXDN, Homo sapiens, UniProt Q92626); Amplex UltraRed; 60 µM; relative to: control).
CNc1ncc2c(/C=C/C(=O)N3CCC(OC)CC3)nn(Cc3cccc(C(F)(F)F)c3)c2n1 has a remaining activity of 92% (Serine/threonine-protein kinase D2 (PRKD2, Homo sapiens, UniProt Q9BZL6); kinase activity, inhibitor; 1 µM; relative to: untreated control).
For Oc1cc(O)c2c(c1)OC(c1cc(O)c(O)c(O)c1)C(O)C2 (stereo not shown), the remaining activity was 95.6% (Procathepsin L (CTSL, Homo sapiens, UniProt P07711); enzyme activity, inhibitor; 100 µM, with: Z-FR-AFC).
